Measurements collected from several papers.
A part holds a random share of what one study measured.
Chain of UniProt O94921 (whole entry, looked up): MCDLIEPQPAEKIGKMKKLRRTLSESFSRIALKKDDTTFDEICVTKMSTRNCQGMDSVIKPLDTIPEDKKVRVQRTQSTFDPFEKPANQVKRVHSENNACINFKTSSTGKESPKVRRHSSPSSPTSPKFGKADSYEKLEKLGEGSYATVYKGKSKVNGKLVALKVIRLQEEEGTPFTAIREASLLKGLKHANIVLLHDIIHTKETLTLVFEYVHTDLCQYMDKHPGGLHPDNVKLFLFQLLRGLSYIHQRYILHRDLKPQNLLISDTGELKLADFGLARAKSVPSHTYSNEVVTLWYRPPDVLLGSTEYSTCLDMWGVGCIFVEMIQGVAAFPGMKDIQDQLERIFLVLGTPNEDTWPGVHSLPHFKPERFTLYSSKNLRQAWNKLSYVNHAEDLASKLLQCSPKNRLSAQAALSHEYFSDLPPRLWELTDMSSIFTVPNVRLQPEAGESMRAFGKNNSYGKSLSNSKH
Chain of UniProt Q9UL54 (whole entry, looked up): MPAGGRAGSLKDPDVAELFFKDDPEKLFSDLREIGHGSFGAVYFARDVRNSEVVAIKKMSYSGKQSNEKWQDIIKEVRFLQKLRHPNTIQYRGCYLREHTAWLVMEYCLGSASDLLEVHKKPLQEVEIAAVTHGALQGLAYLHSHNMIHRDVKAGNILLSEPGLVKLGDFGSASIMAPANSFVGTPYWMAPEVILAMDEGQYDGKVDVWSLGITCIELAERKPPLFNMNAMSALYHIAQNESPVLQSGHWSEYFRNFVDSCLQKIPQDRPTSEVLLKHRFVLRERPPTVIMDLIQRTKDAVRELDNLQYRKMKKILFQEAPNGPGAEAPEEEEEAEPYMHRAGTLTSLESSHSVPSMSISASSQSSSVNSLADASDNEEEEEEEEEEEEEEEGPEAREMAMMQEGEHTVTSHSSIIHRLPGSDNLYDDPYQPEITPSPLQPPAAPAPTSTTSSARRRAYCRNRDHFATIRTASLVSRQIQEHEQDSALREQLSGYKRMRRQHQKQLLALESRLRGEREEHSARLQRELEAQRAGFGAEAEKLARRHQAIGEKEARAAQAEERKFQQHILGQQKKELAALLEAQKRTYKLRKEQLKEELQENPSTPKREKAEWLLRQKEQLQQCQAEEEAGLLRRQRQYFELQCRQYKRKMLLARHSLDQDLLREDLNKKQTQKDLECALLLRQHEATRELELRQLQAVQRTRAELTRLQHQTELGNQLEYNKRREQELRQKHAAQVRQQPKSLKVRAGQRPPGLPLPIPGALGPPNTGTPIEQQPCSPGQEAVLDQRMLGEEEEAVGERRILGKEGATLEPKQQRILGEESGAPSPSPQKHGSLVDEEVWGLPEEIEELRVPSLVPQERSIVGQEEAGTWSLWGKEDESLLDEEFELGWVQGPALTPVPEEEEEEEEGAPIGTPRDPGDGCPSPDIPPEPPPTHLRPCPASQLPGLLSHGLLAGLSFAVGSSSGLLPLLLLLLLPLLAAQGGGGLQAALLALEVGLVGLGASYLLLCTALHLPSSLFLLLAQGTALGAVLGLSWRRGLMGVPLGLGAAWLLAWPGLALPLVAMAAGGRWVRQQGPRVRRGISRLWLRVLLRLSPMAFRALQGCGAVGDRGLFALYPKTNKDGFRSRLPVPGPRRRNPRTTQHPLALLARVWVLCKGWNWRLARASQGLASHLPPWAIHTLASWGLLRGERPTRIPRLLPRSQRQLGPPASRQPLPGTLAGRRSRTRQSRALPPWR
Chain of UniProt Q96J92 (whole entry, looked up): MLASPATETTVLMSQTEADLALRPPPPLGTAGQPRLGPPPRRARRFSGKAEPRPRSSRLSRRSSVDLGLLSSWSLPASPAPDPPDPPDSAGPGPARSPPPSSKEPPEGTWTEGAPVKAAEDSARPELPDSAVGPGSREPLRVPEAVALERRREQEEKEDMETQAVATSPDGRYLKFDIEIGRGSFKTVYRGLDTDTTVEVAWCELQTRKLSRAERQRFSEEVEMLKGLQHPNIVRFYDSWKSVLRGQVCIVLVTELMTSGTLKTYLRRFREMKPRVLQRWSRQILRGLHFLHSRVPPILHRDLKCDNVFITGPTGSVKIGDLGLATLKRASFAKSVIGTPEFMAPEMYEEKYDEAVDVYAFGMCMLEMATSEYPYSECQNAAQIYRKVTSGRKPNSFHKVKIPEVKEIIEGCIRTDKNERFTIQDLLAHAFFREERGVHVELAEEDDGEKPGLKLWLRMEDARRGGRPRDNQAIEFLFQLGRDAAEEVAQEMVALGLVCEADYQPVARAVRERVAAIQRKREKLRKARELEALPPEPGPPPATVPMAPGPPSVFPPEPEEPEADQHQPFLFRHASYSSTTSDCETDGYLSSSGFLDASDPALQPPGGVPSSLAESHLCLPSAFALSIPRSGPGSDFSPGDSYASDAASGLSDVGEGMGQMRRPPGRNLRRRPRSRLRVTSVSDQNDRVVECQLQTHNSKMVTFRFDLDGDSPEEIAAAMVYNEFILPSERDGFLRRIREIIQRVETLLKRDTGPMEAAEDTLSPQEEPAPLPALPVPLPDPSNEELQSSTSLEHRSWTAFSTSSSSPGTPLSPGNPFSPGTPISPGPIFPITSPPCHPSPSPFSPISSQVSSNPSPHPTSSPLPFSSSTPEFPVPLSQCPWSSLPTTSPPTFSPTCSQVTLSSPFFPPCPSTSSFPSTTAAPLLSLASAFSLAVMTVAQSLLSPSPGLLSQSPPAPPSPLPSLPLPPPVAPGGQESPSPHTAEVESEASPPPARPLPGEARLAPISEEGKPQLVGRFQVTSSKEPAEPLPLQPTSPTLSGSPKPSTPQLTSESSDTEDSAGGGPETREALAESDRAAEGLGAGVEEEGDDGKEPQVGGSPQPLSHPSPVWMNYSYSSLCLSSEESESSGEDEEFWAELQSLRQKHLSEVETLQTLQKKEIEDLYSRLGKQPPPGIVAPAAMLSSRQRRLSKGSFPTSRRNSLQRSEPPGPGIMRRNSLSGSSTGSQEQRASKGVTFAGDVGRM
Chain of UniProt O75116 (whole entry, looked up): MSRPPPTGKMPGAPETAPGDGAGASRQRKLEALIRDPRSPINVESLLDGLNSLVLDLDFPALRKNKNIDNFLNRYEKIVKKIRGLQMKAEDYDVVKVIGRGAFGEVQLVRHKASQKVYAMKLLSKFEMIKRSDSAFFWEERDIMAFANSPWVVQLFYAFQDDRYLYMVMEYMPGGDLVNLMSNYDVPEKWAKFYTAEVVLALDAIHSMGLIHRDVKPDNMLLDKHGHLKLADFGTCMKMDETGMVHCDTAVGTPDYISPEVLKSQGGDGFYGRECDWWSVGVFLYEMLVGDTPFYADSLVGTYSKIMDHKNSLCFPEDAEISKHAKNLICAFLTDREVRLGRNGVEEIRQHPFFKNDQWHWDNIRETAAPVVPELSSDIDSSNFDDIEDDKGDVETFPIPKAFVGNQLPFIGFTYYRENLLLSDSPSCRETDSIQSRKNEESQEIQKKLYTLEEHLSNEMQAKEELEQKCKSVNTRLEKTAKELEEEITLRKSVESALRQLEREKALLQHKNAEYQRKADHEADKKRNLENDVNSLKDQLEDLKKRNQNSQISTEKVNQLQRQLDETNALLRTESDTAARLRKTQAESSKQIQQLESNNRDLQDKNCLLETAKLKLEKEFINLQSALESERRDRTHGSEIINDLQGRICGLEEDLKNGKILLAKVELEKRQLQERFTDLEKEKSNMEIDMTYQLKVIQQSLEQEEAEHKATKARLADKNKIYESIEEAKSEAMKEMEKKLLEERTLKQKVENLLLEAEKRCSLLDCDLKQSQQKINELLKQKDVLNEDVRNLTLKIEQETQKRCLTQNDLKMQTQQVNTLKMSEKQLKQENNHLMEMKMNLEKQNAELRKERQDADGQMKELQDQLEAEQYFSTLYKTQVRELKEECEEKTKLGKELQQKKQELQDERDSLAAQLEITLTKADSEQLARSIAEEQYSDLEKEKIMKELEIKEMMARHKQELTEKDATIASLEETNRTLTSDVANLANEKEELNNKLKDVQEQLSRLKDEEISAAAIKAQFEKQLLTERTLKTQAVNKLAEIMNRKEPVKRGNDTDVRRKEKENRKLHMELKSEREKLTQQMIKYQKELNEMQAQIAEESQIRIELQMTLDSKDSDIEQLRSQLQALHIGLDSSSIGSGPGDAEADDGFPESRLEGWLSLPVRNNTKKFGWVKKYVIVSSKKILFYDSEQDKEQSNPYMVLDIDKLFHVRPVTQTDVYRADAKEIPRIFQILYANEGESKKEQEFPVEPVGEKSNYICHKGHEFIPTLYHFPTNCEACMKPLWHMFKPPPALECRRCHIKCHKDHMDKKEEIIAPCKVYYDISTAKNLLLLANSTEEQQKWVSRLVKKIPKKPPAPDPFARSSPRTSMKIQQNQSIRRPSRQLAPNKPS
Chain of UniProt P11802 (whole entry, looked up): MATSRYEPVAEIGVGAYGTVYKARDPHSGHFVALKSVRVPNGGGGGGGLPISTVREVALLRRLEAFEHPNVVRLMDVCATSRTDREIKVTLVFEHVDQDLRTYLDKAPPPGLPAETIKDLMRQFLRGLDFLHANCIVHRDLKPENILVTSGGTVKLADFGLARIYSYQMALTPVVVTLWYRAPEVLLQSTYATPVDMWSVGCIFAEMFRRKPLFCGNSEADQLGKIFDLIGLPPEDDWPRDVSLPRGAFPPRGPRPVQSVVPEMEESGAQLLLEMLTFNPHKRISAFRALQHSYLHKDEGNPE
Chain of UniProt P45985 (whole entry, looked up): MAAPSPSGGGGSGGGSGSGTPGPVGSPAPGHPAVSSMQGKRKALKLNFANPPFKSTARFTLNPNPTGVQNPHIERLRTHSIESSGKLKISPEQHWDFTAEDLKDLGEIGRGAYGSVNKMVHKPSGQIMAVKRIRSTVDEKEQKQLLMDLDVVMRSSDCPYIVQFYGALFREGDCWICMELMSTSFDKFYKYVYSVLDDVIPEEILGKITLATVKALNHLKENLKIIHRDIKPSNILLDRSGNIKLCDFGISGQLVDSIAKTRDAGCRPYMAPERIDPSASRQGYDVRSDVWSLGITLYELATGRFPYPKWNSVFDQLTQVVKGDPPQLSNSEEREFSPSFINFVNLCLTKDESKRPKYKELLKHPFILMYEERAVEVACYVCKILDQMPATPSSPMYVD

Set 1
SMILES: Cc1noc([C@H]2C[C@@H](c3ccc(C(F)(F)F)cc3)CN(C(=O)N3CCS(=O)(=O)C3)C2)n1
Tested at: 1 µM
It gave 100% for remaining binding (Tyrosine-protein kinase ABL1, phosphorylated (ABL1, Homo sapiens, UniProt P00519); cell-free assay, competition with immobilised ligand).
The remaining binding was 94% (Dual serine/threonine and tyrosine protein kinase (DSTYK, Homo sapiens, UniProt Q6XUX3); cell-free assay, competition with immobilised ligand).
It gave 100% for remaining binding (Activin receptor type-2A (ACVR2A, Homo sapiens, UniProt P27037); cell-free assay, competition with immobilised ligand).
Activin receptor type-2B (ACVR2B, Homo sapiens, UniProt Q13705); binding, competition with immobilised ligand — remaining binding: 100%.
For Interferon-induced, double-stranded RNA-activated protein kinase (EIF2AK2, Homo sapiens, UniProt P19525); cell-free assay, competition with immobilised ligand: remaining binding read 100%.
cAMP-dependent protein kinase catalytic subunit PRKX (PRKX, Homo sapiens, UniProt P51817); cell-free assay, competition with immobilised ligand — remaining binding: 100%.
The remaining binding was 100% (Serine/threonine-protein kinase 32A (STK32A, Homo sapiens, UniProt Q8WU08); cell-free assay, competition with immobilised ligand).
Calcium/calmodulin-dependent protein kinase type IV (CAMK4, Homo sapiens, UniProt Q16566); cell-free assay, competition with immobilised ligand — remaining binding: 95%.
Epidermal growth factor receptor (EGFR, Homo sapiens, UniProt P00533, A750P/del747-749); cell-free assay, competition with immobilised ligand — remaining binding: 100%.
Death-associated protein kinase 3 (DAPK3, Homo sapiens, UniProt O43293); cell-free assay, competition with immobilised ligand — remaining binding: 100%.
For Tyrosine-protein kinase Fer (FER, Homo sapiens, UniProt P16591); cell-free assay, competition with immobilised ligand: remaining binding read 82%.
It gave 100% for remaining binding (Cyclin-dependent kinase 4, with cyclin D3 (CDK4, Homo sapiens, UniProt P11802); cell-free assay, competition with immobilised ligand).
The remaining binding was 100% (Macrophage colony-stimulating factor 1 receptor, autoinhibited (CSF1R, Homo sapiens, UniProt P07333); cell-free assay, competition with immobilised ligand).
The remaining binding was 100% (Vascular endothelial growth factor receptor 1 (FLT1, Homo sapiens, UniProt P17948); cell-free assay, competition with immobilised ligand).
For Aurora kinase B (AURKB, Homo sapiens, UniProt Q96GD4); cell-free assay, competition with immobilised ligand: remaining binding read 100%.
For Ephrin type-B receptor 2 (EPHB2, Homo sapiens, UniProt P29323); cell-free assay, competition with immobilised ligand: remaining binding read 100%.
For Rho-associated protein kinase 2 (ROCK2, Homo sapiens, UniProt O75116); cell-free assay, competition with immobilised ligand: remaining binding read 100%.
It gave 100% for remaining binding (Insulin receptor-related protein (INSRR, Homo sapiens, UniProt P14616); cell-free assay, competition with immobilised ligand).
It gave 89% for remaining binding (Ephrin type-A receptor 1 (EPHA1, Homo sapiens, UniProt P21709); cell-free assay, competition with immobilised ligand).
For Receptor-type tyrosine-protein kinase FLT3 (FLT3, Homo sapiens, UniProt P36888, D835Y); cell-free assay, competition with immobilised ligand: remaining binding read 100%.
The remaining binding was 97% (Cyclin-G-associated kinase (GAK, Homo sapiens, UniProt O14976); cell-free assay, competition with immobilised ligand).
Serine/threonine-protein kinase WNK4 (WNK4, Homo sapiens, UniProt Q96J92); cell-free assay, competition with immobilised ligand — remaining binding: 100%.
It gave 100% for remaining binding (Cyclin-dependent kinase 14 (CDK14, Homo sapiens, UniProt O94921); cell-free assay, competition with immobilised ligand).
For Serine/threonine-protein kinase SIK1 (SIK1, Homo sapiens, UniProt P57059); competition binding: remaining binding read 100%.
It gave 100% for remaining binding (Tyrosine-protein kinase Blk (BLK, Homo sapiens, UniProt P51451); cell-free assay, competition with immobilised ligand).

Set 2
Target: Testis-specific serine/threonine-protein kinase 1 (TSSK1B, Homo sapiens, UniProt Q9BXA7)
Observed: enzyme activity
Mode: inhibitor
Tested at: 0.5 µM
Reference: control
Construct (Q9BXA7 1-367): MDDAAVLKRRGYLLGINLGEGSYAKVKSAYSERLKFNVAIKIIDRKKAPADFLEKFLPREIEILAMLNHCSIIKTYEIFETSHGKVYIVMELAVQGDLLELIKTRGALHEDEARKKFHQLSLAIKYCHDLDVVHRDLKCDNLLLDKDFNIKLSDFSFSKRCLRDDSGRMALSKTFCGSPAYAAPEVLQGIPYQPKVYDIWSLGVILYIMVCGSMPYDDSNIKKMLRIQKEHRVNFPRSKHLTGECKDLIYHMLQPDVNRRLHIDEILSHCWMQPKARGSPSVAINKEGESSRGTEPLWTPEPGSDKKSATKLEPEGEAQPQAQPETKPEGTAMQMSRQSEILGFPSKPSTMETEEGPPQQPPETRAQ
`COc1ccc2c(c1)c(C1=C(c3c[nH]c4ccccc34)C(=O)NC1=O)cn2CCCN(C)C` has a remaining activity of 80.3%.
For `O=c1cc(N2CCOCC2)oc2c(-c3ccccc3)cccc12`, the remaining activity was 101%.
`O=C(c1cc2cc(O)ccc2[nH]1)c1cc2cc(O)ccc2[nH]1` has a remaining activity of 96.4%.
`c1ccc(-c2n[nH]c3c2oc2ccccc23)cc1` has a remaining activity of 97.2%.
The remaining activity of `COc1cccc(-c2cc(=O)c3ccccc3o2)c1N` is reported as 82.4%.
The remaining activity of `CCCCc1c(-c2ccc(OC)cc2)[nH]c2nccnc12` is reported as 65.3%.
`O=Nc1c(-c2c(O)[nH]c3cc(Br)ccc23)[nH]c2ccccc12` has a remaining activity of 83%.
`COc1ccc(COc2ccc(Cc3cnc(N)nc3N)cc2OC)cc1` gave a remaining activity of 95.2%.
For `O=C1NC(=O)c2c1c1c3ccccc3[nH]c1n1cncc21`, the remaining activity was 84.4%.
`Cc1ccc(S(=O)(=O)/C=C/C#N)cc1` gave a remaining activity of 97.4%.
With `O=C1Nc2ccc(Br)cc2/C1=C/c1cc2c([nH]1)CCCC2` the remaining activity was 36.1%.
For `O=C1NC(=O)c2c1c1c3ccccc3[nH]c1c1[nH]c3cc(Br)ccc3c21`, the remaining activity was 86.5%.
With `O=C1Nc2ccccc2/C1=C\c1c(Cl)[nH]c2ccccc12` the remaining activity was 101%.
`Oc1cccc(-c2nc(N3CCOCC3)c3oc4ncccc4c3n2)c1` gave a remaining activity of 93.4%.
The remaining activity of `N#Cc1cnc2cnc(NCc3cccnc3)cc2c1Nc1ccc(F)c(Cl)c1` is reported as 84.4%.
With `Cc1cc(Nc2cc(N3CCN(C)CC3)nc(Sc3ccc(NC(=O)C4CC4)cc3)n2)[nH]n1` the remaining activity was 90.5%.
`O=C1Cc2c([nH]c3ccc(Br)cc23)-c2ccccc2N1` has a remaining activity of 80.4%.
With `CCCNC(=O)Nc1ccc(Oc2ncnc3cc(OC)c(OC)cc23)cc1Cl` the remaining activity was 80.4%.
For `CN1CCN(c2ccc3nc(-c4c(N)c5c(F)cccc5[nH]c4=O)[nH]c3c2)CC1`, the remaining activity was 54.4%.
The remaining activity of `c1ccc2c(-c3ccncc3)c[nH]c2c1` is reported as 103%.
For `CN(C)S(=O)(=O)c1ccc2c(c1)/C(=C/c1cc3c([nH]1)CCCC3)C(=O)N2`, the remaining activity was 74.6%.

Set 3
Compound: O=C(Nc1cnn(-c2csc(C(=O)NC3COC3)c2)c1)Nc1ccccc1Cl
Observed: enzyme activity
Tested at: 5 µM
Reference: untreated control
It gave 94% for remaining activity (Ribosomal protein S6 kinase beta-2 (RPS6KB2, Homo sapiens, UniProt Q9UBS0)).
Dual specificity mitogen-activated protein kinase kinase 5 (MAP2K5, Homo sapiens, UniProt Q13163) — remaining activity: 98%.
It gave 111% for remaining activity (Dual specificity mitogen-activated protein kinase kinase 4 (MAP2K4, Homo sapiens, UniProt P45985)).
Serine/threonine-protein kinase TAO2 (TAOK2, Homo sapiens, UniProt Q9UL54) — remaining activity: 101%.
For Serine/threonine-protein kinase Sgk1 (SGK1, Homo sapiens, UniProt O00141): remaining activity read 93%.
For Inactive tyrosine-protein kinase PEAK1 (PEAK1, Homo sapiens, UniProt Q9H792): remaining activity read 91%.
RAF proto-oncogene serine/threonine-protein kinase (RAF1, Homo sapiens, UniProt P04049) — remaining activity: 82%.

Set 4
Host: human
Medium: microsomes or S9
Tested at: 2 µM
Time: 0.5 h
`Cc1nc(-c2ccc3c(c2)CCN3C(=O)Cc2c[nH]c3ccccc23)cs1` gave a remaining compound of 28.6%.
For `Cc1n[nH]c(-c2ccccc2)c1-c1nc2ccccc2n1Cc1ccccc1`, the remaining compound was 10.4%.
For `CC(C)Nc1ncc2scc(COc3cccc4ncccc34)c2n1`, the remaining compound was 9.12%.
`COc1cc2c(c(OC)c1)C1(CC(C)(C)N2)CC(C)(C)Nc2cc(OC)cc(OC)c21` gave a remaining compound of 70.6%.
With `OC1CCC(Nc2nc(-c3ccncc3)nc3c2CCC3)CC1` (stereo not drawn) the remaining compound was 73.9%.
`COc1ccc(C2=NOC(c3ccc(-c4nnn[nH]4)cc3)C2)cc1` (stereo not drawn) gave a remaining compound of 21.9%.
`CCOc1cc(C(=O)Nc2[nH]nc(C)c2-c2ccc(OC)c(OC)c2)cc(OCC)c1OCC` gave a remaining compound of 17.6%.
`COc1cc(OC)c(OC)c(C(c2sc3nc(C)nn3c2O)N2CCN(C)CC2)c1` (stereo not drawn) gave a remaining compound of over 100%.
`COc1ccccc1-c1coc2cc(O)ccc2c1=O` gave a remaining compound of 58.6%.
`COc1ccc(-n2ccc3cc(NC(=O)N4CCOCC4)ccc32)cc1Cl` has a remaining compound of 69.3%.

Excerpt of the above (set 1):
The remaining binding was 100% (Macrophage colony-stimulating factor 1 receptor, autoinhibited (CSF1R, Homo sapiens, UniProt P07333); cell-free assay, competition with immobilised ligand).
The remaining binding was 100% (Vascular endothelial growth factor receptor 1 (FLT1, Homo sapiens, UniProt P17948); cell-free assay, competition with immobilised ligand).
For Aurora kinase B (AURKB, Homo sapiens, UniProt Q96GD4); cell-free assay, competition with immobilised ligand: remaining binding read 100%.
For Ephrin type-B receptor 2 (EPHB2, Homo sapiens, UniProt P29323); cell-free assay, competition with immobilised ligand: remaining binding read 100%.
For Rho-associated protein kinase 2 (ROCK2, Homo sapiens, UniProt O75116); cell-free assay, competition with immobilised ligand: remaining binding read 100%.
It gave 100% for remaining binding (Insulin receptor-related protein (INSRR, Homo sapiens, UniProt P14616); cell-free assay, competition with immobilised ligand).
It gave 89% for remaining binding (Ephrin type-A receptor 1 (EPHA1, Homo sapiens, UniProt P21709); cell-free assay, competition with immobilised ligand).
For Receptor-type tyrosine-protein kinase FLT3 (FLT3, Homo sapiens, UniProt P36888, D835Y); cell-free assay, competition with immobilised ligand: remaining binding read 100%.
The remaining binding was 97% (Cyclin-G-associated kinase (GAK, Homo sapiens, UniProt O14976); cell-free assay, competition with immobilised ligand).
Serine/threonine-protein kinase WNK4 (WNK4, Homo sapiens, UniProt Q96J92); cell-free assay, competition with immobilised ligand — remaining binding: 100%.
